Published values collected from several papers.
Compare with care: the assays were run in different laboratories. ± gives the spread as reported.
GABA-A receptor; alpha-1/beta-2/gamma-2: GABA-A receptor; alpha-1/beta-2/gamma-2 (Homo sapiens, UniProt P14867+P18507+P47870)
UniProt P47870, sequence (whole entry, looked up): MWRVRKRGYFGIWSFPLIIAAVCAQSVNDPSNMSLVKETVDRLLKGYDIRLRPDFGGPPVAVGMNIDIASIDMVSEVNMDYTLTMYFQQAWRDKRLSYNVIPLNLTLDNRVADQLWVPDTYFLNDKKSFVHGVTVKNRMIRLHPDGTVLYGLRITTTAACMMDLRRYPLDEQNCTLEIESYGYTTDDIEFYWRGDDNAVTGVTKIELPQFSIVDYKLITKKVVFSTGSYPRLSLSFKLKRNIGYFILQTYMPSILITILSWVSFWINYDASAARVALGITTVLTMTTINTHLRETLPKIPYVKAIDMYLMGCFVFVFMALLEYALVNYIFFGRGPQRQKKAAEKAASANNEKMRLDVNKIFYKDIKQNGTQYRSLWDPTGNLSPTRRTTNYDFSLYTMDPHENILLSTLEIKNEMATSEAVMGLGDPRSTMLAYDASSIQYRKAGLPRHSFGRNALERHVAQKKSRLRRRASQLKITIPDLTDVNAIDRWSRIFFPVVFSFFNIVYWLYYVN
UniProt P14867, sequence (whole entry, unmodified, looked up): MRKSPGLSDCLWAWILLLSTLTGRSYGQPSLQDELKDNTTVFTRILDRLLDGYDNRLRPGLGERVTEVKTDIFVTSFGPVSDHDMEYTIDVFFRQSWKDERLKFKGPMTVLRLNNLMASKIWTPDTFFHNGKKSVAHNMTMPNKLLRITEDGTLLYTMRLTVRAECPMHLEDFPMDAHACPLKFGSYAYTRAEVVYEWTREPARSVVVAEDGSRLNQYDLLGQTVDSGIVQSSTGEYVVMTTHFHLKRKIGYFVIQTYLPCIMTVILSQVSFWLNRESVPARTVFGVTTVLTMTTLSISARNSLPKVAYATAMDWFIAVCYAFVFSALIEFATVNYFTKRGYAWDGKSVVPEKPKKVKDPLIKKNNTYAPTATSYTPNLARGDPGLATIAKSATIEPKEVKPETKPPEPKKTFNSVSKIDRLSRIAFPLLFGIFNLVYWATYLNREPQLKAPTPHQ
UniProt P18507, sequence (whole entry, looked up): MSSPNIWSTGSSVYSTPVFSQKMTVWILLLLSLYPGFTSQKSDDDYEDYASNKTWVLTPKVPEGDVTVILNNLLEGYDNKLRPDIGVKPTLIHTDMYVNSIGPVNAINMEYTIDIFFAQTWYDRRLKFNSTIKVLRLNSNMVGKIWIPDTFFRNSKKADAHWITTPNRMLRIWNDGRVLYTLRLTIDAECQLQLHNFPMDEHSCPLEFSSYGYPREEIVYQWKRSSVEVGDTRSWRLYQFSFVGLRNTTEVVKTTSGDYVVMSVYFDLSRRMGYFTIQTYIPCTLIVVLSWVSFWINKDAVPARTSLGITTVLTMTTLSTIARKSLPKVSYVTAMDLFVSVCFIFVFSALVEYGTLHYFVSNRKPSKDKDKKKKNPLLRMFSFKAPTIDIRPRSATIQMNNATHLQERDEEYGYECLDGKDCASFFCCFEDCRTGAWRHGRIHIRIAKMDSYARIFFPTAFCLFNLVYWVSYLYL
GABA-A receptor; alpha-1/beta-3/gamma-2: GABA-A receptor; alpha-1/beta-3/gamma-2 (Homo sapiens, UniProt P14867+P18507+P28472)
UniProt P28472, sequence (whole entry, unmodified, looked up): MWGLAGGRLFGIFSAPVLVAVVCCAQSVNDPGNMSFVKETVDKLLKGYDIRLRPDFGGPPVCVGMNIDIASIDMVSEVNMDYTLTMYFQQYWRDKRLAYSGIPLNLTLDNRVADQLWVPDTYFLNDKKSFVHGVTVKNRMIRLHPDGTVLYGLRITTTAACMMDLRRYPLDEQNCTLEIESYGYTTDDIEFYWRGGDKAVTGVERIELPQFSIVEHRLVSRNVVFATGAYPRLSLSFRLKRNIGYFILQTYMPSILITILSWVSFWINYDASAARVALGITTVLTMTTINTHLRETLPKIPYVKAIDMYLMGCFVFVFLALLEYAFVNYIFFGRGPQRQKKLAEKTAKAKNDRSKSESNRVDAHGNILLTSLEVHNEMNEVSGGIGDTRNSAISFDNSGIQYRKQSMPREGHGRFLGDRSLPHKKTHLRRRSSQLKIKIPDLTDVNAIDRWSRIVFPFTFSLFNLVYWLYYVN
GABRA1/GABRB3 L291T with gamma-2 subunit: GABA-A receptor alpha-1/beta-3, with gamma-2 subunit (GABRA1/GABRB3, Homo sapiens, UniProt P14867+P28472, L291T)
Sterol carrier protein 2: Sterol carrier protein 2 (Homo sapiens, UniProt P22307)
UniProt P22307, sequence (whole entry, looked up): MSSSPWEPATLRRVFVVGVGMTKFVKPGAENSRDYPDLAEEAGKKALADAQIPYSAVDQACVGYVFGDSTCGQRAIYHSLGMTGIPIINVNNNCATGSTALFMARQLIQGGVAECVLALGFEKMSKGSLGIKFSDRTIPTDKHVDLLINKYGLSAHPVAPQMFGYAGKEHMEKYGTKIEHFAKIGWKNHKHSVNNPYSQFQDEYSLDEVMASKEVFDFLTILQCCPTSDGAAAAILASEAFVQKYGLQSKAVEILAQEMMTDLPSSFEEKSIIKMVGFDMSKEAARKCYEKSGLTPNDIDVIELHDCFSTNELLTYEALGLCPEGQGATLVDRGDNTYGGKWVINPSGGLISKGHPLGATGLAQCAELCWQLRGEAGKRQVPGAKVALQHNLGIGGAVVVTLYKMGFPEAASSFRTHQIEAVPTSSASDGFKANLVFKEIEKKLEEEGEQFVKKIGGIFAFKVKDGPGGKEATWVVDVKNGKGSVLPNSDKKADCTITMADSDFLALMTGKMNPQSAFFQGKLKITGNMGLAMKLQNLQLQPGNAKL
HTR2A: 5-hydroxytryptamine receptor 2A (HTR2A, Homo sapiens, UniProt P28223)
UniProt P28223, sequence (whole entry, looked up): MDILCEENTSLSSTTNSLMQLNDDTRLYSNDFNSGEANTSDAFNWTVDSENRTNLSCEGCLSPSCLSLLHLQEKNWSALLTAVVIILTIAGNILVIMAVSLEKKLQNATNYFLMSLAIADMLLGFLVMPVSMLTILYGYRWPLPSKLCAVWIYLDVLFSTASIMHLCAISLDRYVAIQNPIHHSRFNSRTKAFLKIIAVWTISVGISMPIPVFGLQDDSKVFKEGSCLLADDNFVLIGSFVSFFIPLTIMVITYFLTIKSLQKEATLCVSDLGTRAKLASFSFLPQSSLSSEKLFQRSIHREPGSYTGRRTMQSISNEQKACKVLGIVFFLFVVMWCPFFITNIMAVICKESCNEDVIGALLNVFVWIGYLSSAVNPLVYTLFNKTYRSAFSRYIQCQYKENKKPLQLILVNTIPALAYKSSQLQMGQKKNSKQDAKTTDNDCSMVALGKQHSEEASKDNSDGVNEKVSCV
UniProt Q07812, sequence (whole entry, looked up): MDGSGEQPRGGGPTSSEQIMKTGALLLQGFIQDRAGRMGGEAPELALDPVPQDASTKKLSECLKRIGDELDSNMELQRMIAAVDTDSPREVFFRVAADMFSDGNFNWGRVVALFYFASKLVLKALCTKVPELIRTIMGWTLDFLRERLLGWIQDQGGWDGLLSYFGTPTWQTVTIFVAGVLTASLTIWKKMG
UniProt P31645, sequence (whole entry, looked up): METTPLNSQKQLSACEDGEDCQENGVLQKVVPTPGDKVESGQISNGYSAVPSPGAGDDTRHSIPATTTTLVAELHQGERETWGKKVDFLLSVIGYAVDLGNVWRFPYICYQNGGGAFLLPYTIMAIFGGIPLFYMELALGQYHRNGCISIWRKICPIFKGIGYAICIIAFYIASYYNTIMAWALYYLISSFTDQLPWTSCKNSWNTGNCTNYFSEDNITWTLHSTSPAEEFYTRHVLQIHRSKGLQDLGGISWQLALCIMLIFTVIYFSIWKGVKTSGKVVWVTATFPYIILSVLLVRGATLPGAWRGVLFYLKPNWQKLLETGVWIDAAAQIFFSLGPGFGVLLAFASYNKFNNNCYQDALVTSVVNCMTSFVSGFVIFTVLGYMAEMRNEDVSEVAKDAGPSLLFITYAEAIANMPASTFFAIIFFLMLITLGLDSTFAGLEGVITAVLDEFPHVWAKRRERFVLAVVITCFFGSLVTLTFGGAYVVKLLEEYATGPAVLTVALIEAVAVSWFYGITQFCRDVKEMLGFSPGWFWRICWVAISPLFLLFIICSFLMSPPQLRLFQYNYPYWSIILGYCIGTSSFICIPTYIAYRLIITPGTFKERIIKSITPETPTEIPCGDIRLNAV
UniProt Q923Y9, sequence (whole entry, unmodified, looked up): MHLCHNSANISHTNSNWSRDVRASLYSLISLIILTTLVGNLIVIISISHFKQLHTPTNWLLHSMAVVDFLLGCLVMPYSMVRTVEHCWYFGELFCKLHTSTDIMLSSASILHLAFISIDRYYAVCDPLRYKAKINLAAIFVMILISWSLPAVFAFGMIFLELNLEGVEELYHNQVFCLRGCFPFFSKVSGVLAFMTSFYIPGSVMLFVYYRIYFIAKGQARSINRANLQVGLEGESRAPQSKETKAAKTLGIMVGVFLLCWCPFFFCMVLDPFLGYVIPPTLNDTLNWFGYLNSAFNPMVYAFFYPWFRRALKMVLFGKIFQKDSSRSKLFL
UniProt P33533, sequence (whole entry, looked up): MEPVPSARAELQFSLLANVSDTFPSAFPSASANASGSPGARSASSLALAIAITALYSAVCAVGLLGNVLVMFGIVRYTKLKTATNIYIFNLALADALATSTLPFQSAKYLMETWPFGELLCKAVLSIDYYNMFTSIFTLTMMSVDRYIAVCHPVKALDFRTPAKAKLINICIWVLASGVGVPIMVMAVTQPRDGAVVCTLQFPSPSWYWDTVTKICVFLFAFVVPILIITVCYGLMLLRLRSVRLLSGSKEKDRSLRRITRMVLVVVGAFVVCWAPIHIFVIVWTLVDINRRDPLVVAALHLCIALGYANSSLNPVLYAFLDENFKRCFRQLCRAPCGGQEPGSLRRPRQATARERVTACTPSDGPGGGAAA

SMILES = CC(=O)[C@H]1CC[C@H]2[C@@H]3CC[C@H]4C[C@](C)(O)CC[C@]4(C)[C@H]3CC[C@]12C; target = GABA-A receptor; alpha-1/beta-2/gamma-2; assay = GABA current potentiation, positive modulator, two-electrode voltage clamp; test system = Xenopus laevis oocytes; conditions = 30 s preincubation, together with: GABA EC10; EC50 = 0.79 ± 0.63 µM
SMILES = CCOC(=O)c1cncn1[C@H](C)c1cccc(OC(C)C)c1; target = GABA-A receptor; alpha-1/beta-3/gamma-2; assay = potentiation of GABA current, positive allosteric modulator, two-electrode voltage clamp; test system = Xenopus oocytes; conditions = together with: GABA EC5; EC50 = 38 µM
SMILES = COC(=O)COC(=O)c1cncn1[C@H](C)c1ccccc1; target = GABRA1/GABRB3 L291T with gamma-2 subunit; assay = ion current, agonist, two-electrode voltage clamp; test system = Xenopus oocytes; scale = reference: 100 µM GABA; EC50 = 38 ± 2 µM
SMILES = CN1CC[C@]2(c3cccc(O)c3)Cc3nc4ccccc4cc3C[C@H]2C1; target = Oprd1 (Rattus norvegicus, UniProt P33533); assay = agonist; test system = ethanol-trained rat, rat cerebral cortex membranes; conditions = vehicle-pretreated; EC50 = 6.4 ± 0.9 µM
SMILES = COC(=O)CCOC(=O)c1cncn1[C@H](C)c1ccccc1; target = GABRA1/GABRB3 L291T with gamma-2 subunit; assay = ion current, agonist, two-electrode voltage clamp; test system = Xenopus oocytes; scale = reference: 100 µM GABA; EC50 = 20 ± 2 µM
SMILES = CCCCC/C=C\C/C=C\C/C=C\C/C=C\CCCC(=O)NCCc1ccc(O)c(O)c1; target = Sterol carrier protein 2; assay = NBDS displacement, fluorescent probe displacement; conditions = 50% of maximum displacement, together with: NBDS 500 nM; EC50 = 2.54 ± 0.05 µM
SMILES = C[C@]12CC[C@@H](O)C[C@@H]1CC[C@@H]1[C@@H]2CC[C@]2(C)[C@@H](C(=O)CO)CC[C@@H]12; target = GABA-A receptor alpha-1/beta-3 (GABRA1/GABRB3, Homo sapiens, UniProt P14867+P28472); assay = [3H]muscimol binding modulation, modulator; test system = native membranes; conditions = together with: 2 nM [3H]muscimol; EC50 = 1 µM
SMILES = COC(=O)CCOC(=O)c1cncn1[C@H](c1ccccc1)C(C)C; target = GABRA1/GABRB3 L291T with gamma-2 subunit; assay = ion current, agonist, two-electrode voltage clamp; test system = Xenopus oocytes; scale = reference: 100 µM GABA; EC50 = 2.6 ± 0.3 µM
SMILES = CNC(C)C(=O)c1ccccc1 (stereo not shown); target = Slc6a3 (Rattus norvegicus, UniProt P23977); assay = substrate release, releasing agent; test system = rat brain synaptosomes; EC50 = 0.021 to 0.025 µM
SMILES = COc1ccc2[nH]cc(CCNC(C)C)c2c1; target = HTR2A; assay = calcium signal, agonist; EC50 = 0.00924 µM
SMILES = CCOC(=O)c1cncn1[C@H](C)c1ccc(Br)cc1; target = GABA-A receptor; alpha-1/beta-3/gamma-2; assay = potentiation of GABA current, positive allosteric modulator, two-electrode voltage clamp; test system = Xenopus oocytes; conditions = together with: GABA EC5; EC50 = 2.5 µM
SMILES = CCCCC/C=C\C/C=C\C/C=C\C/C=C\CCCC(=O)OCCN; target = Sterol carrier protein 2; assay = NBDS displacement, fluorescent probe displacement; conditions = 50% of maximum displacement, together with: NBDS 500 nM; EC50 = 3.64 ± 0.04 µM
SMILES = COC(=O)[C@H](C)COC(=O)c1cncn1[C@H](C)c1ccccc1; target = GABRA1/GABRB3 L291T with gamma-2 subunit; assay = ion current, agonist, two-electrode voltage clamp; test system = Xenopus oocytes; scale = reference: 100 µM GABA; EC50 = 35 ± 12 µM
SMILES = CC(=O)[O][Hg][c]1ccccc1; target = BAX (Homo sapiens, UniProt Q07812); assay = liposome permeabilization; conditions = together with: 100 nM BAX; EC50 = 0.2 µM
SMILES = CC(=O)[C@H]1CC[C@H]2[C@@H]3CC[C@H]4C[C@H](O)CC[C@]4(C)[C@H]3CC[C@]12C; target = GABA-A receptor; alpha-1/beta-2/gamma-2; assay = GABA current potentiation, positive modulator, two-electrode voltage clamp; test system = Xenopus laevis oocytes; conditions = 30 s preincubation, together with: GABA EC10; EC50 = 0.11 ± 0.01 µM
SMILES = CCCCC/C=C\C/C=C\C/C=C\C/C=C\CCCC(=O)NC(CO)CO; target = Sterol carrier protein 2; assay = NBDS displacement, fluorescent probe displacement; conditions = 50% of maximum displacement, together with: NBDS 500 nM; EC50 = 6.7 ± 0.28 µM
SMILES = CC(C(=O)c1ccc2c(c1)OCO2)N(C)C (stereo not shown); target = SLC6A4 (Homo sapiens, UniProt P31645); assay = [3H]5-HT release, releaser; test system = HEK293 expressing target; EC50 = > 10 µM
SMILES = NCCc1ccc(Oc2ccc(O)cc2)c(I)c1; target = Trace amine-associated receptor 1 (Rattus norvegicus, UniProt Q923Y9, F153Y); assay = cAMP accumulation, agonist, cell-based; conditions = TM4 mutant; EC50 = 0.038 ± 0.011 µM
SMILES = CN1C(=O)CN=C(c2ccccc2)c2cc([N+](=O)[O-])ccc21; target = Androgen receptor (AR, Homo sapiens, UniProt P10275); test system = human cells; conditions = concentration not given; EC50 = 4.4 µM
SMILES = COC(=O)C[C@@H](C)OC(=O)c1cncn1[C@H](C)c1ccccc1; target = GABRA1/GABRB3 L291T with gamma-2 subunit; assay = ion current, agonist, two-electrode voltage clamp; test system = Xenopus oocytes; scale = reference: 100 µM GABA; EC50 = 11 ± 1 µM
SMILES = CCOC(=O)c1cncn1[C@H](C)c1ccc(OC)cc1; target = GABA-A receptor; alpha-1/beta-3/gamma-2; assay = potentiation of GABA current, positive allosteric modulator, two-electrode voltage clamp; test system = Xenopus oocytes; conditions = together with: GABA EC5; EC50 = 30 µM
SMILES = COC(=O)[C@@H](C)OC(=O)c1cncn1[C@H](C)c1ccccc1; target = GABRA1/GABRB3 L291T with gamma-2 subunit; assay = ion current, agonist, two-electrode voltage clamp; test system = Xenopus oocytes; scale = reference: 100 µM GABA; EC50 = 8.2 ± 0.9 µM
SMILES = CCCCC/C=C\C/C=C\C/C=C\C/C=C\CCCC(N)=O; target = Sterol carrier protein 2; assay = NBDS displacement, fluorescent probe displacement; conditions = 50% of maximum displacement, together with: NBDS 500 nM; EC50 = 4.09 ± 0.23 µM
SMILES = CCN(CC)CCc1c[nH]c2ccc(OC)cc12; target = HTR2A; assay = β-arrestin recruitment, agonist; EC50 = 1.06 µM
SMILES = C[C@@]1(O)CC[C@H]2[C@H](CC[C@@H]3[C@@H]2CC[C@]2(C)[C@@H](C(=O)Cn4cc(C#N)cn4)CC[C@@H]32)C1; target = GABA-A receptor; alpha-1/beta-2/gamma-2; assay = GABA current potentiation, positive modulator, two-electrode voltage clamp; test system = Xenopus laevis oocytes; conditions = 30 s preincubation, together with: GABA EC10; EC50 = 0.32 ± 0.16 µM
